Measured values from different studies.
Each line is one published result; not all experiments were run side by side. “And” joins repeats or separate records; there may be more than shown.
Oprk1: Kappa-type opioid receptor (Oprk1, Mus musculus, UniProt P33534)
SIGMAR1: Sigma non-opioid intracellular receptor 1 (SIGMAR1, Cavia porcellus, UniProt Q60492)
CNR1: Cannabinoid receptor 1 (CNR1, Homo sapiens, UniProt P21554)

The chains behind the UniProt entries cited, without tags or fusion partners. Residues count along the entry.
UniProt Q60492, whole entry: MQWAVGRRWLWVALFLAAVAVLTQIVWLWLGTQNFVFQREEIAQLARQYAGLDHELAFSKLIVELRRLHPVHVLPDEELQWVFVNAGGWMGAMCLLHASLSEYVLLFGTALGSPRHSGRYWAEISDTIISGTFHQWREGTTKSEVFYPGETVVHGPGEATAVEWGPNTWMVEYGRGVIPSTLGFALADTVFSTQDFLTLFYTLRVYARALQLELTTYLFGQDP
UniProt P21554, whole entry: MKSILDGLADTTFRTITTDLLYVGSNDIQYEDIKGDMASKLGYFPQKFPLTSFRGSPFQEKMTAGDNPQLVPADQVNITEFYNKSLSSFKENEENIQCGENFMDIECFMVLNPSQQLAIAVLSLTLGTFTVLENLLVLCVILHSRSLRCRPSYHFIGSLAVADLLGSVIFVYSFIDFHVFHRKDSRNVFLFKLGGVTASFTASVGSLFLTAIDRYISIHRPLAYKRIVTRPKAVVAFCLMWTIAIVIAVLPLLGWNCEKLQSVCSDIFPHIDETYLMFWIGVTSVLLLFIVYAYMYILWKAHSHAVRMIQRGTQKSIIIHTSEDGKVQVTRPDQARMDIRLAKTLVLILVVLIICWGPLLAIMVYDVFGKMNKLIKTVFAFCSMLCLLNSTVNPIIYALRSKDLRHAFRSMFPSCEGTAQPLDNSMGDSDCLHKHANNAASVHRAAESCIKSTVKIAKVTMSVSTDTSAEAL
UniProt Q8N8U2, 1-75 limits assumed: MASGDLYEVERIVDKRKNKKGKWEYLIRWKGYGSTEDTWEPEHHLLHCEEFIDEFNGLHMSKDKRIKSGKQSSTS
UniProt P63252, whole entry: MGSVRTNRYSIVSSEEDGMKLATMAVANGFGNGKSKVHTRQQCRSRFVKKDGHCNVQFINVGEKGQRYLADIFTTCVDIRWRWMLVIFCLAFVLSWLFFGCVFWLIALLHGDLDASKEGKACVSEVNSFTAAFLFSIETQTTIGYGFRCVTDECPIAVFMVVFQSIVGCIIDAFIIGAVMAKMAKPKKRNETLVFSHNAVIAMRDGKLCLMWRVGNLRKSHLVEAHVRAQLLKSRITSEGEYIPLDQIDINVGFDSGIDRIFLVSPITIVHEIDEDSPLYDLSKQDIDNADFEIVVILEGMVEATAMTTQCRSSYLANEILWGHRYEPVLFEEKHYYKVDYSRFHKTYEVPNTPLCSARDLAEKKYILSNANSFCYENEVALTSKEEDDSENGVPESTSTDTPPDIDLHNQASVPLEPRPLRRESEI
UniProt P08246, whole entry, looked up: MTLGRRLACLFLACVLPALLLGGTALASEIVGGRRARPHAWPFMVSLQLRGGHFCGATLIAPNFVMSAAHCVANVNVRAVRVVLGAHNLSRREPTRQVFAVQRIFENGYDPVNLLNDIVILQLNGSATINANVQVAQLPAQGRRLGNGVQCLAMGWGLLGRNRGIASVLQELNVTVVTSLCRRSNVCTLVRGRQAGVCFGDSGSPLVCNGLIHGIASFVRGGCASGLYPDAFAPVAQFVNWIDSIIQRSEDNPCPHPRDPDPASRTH
UniProt P47936, whole entry: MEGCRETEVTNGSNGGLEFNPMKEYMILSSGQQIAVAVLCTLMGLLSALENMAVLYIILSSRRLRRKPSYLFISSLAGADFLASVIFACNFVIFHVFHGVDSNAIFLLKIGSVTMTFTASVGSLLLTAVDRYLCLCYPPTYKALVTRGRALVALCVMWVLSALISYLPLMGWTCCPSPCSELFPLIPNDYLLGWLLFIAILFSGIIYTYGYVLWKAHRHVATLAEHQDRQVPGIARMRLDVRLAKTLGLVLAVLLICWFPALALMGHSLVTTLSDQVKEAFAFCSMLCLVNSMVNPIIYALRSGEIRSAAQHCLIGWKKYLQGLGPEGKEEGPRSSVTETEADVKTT

CCN(CCCC[C@H](NC(=O)[C@H](Cc1ccccc1)NC(=O)[C@H](C)NC(=O)[C@H](Cc1ccccc1)NC(=O)C1CCCCC1)C(=O)N[C@H](C(N)=O)[C@@H](C)O)C(C)C
selectivity ratio (Chromodomain Y-like protein 2 (CDYL2, Homo sapiens, UniProt Q8N8U2); binding, isothermal titration calorimetry; relative to: CBX7 Kd over target Kd): 5 fold

CC1CCN(Cc2cc(Cl)c3cccnc3c2O)CC1
selectivity ratio (Inward rectifier potassium channel 2 (KCNJ2, Homo sapiens, UniProt P63252); inhibitor, thallium flux; relative to: Kir7.1 over KCNJ2): > 7 fold

[N-]=[N+]=CC(=O)[C@H](Cc1cccc([N+](=O)[O-])c1)NC(=O)OCc1ccccc1
selectivity ratio (Neutrophil elastase (ELANE, Homo sapiens, UniProt P08246); highest concentration 40 µM; relative to: elastase IC50 over streptopain IC50): > 21 fold

Cc1cc(C(=O)N[C@@H]2CC[C@@]3(O)[C@H]4Cc5ccc(O)c6c5[C@@]3(CCN4CC3CC3)[C@H]2O6)ccn1
selectivity ratio (Oprk1; radioligand binding; CHO cell membranes; together with: [3H]diprenorphine; relative to: Ki mu receptor over Ki kappa receptor): 0.67

CC1(C)Oc2cc(C(=O)c3csc4ccccc34)cc(O)c2[C@@H]2C[C@H](O)CC[C@H]21
selectivity ratio (Cannabinoid receptor 2 (Cnr2, Mus musculus, UniProt P47936); binding, [3H]CP-55,940 radioligand binding; HEK293 cell membranes; relative to: Ki rat CB1 over Ki mouse CB2): 37 fold

N#Cc1cc(C(=O)N[C@@H]2CC[C@@]3(O)[C@H]4Cc5ccc(O)c6c5[C@@]3(CCN4CC3CC3)[C@H]2O6)ccn1
selectivity ratio (Oprk1; radioligand binding; CHO cell membranes; together with: [3H]diprenorphine; relative to: Ki mu receptor over Ki kappa receptor): 9.62 and 9.6

O=C(c1ccccc1)C1CCN([C@@H]2Cc3ccccc3C[C@H]2O)CC1 (relative stereo)
selectivity ratio (SIGMAR1; binding; relative to: Ki sigma-1 over Ki VAChT): 51.1

O=C(CC1CCCC1)NC1CCN(c2ncnc3c2nc(-c2ccccc2Cl)n3-c2ccc(Cl)cc2)CC1
selectivity ratio (CNR1; binding, radioligand displacement; CHO cell membranes; together with: [3H]CP55940; relative to: Ki CB2 over Ki CB1): 280

O=C(c1ccc(Br)cc1)C1CCN([C@@H]2Cc3ccccc3C[C@H]2O)CC1 (relative stereo)
selectivity ratio (SIGMAR1; binding; relative to: Ki sigma-1 over Ki VAChT): 1190

O=C(N[C@@H]1CC[C@@]2(O)[C@H]3Cc4ccc(O)c5c4[C@@]2(CCN3CC2CC2)[C@H]1O5)c1ccnc(Br)c1
selectivity ratio (Oprk1; radioligand binding; CHO; together with: [3H]diprenorphine; relative to: Ki δ over Ki κ): 965

O=C(NC1CCN(c2ncnc3c2nc(-c2ccccc2Cl)n3-c2ccc(Cl)cc2)CC1)C1CCCC1
selectivity ratio (CNR1; binding, radioligand displacement; CHO cell membranes; together with: [3H]CP55940; relative to: Ki CB2 over Ki CB1): 40

COc1ccc(Sc2cc(C(=O)N3Cc4ccccc4C3)ccc2O)cc1OC
selectivity ratio (Heat shock protein HSP 90-alpha (HSP90AA1, Homo sapiens, UniProt P07900); fluorescence polarization; together with: FITC-geldanamycin; relative to: IC50 Hsp90beta over Hsp90alpha): ~22 fold

COc1cc(C(=O)N[C@@H]2CC[C@@]3(O)[C@H]4Cc5ccc(O)c6c5[C@@]3(CCN4CC3CC3)[C@H]2O6)ccn1
selectivity ratio (Oprk1; radioligand binding; CHO; together with: [3H]diprenorphine; relative to: Ki δ over Ki κ): 349

Some of these lines once more:
O=C(c1ccc(Br)cc1)C1CCN([C@@H]2Cc3ccccc3C[C@H]2O)CC1 (relative stereo)
selectivity ratio (SIGMAR1; binding; relative to: Ki sigma-1 over Ki VAChT): 1190

O=C(c1ccccc1)C1CCN([C@@H]2Cc3ccccc3C[C@H]2O)CC1 (relative stereo)
selectivity ratio (SIGMAR1; binding; relative to: Ki sigma-1 over Ki VAChT): 51.1
